Published values of several laboratories.
Compare with care: the assays were run in different laboratories.

Structure (SMILES) | organism | test | test system | conditions | MIC
CC[C@H](C)[C@H](NC(=O)[C@H](C)NC(=O)CNC(=O)[C@H](C)NC(=O)[C@H](CCCCN)NC(=O)[C@H](CO)NC(=O)[C@H](C)NC(=O)[C@H](CCSC)NC(=O)CN)C(=O)N[C@@H](C)C(=O)NCC(=O)N[C@@H](CCCCN)C(=O)N[C@H](C(=O)N[C@@H](C)C(=O)N[C@@H](CCCCN)C(=O)N[C@H](C(=O)N[C@@H](C)C(=O)N[C@@H](CC(C)C)C(=O)N[C@@H](CCCCN)C(=O)N[C@@H](C)C(=O)N[C@@H](CC(C)C)C(N)=O)C(C)C)[C@@H](C)CC | Escherichia coli | – | 3538, wild type, minimal salts medium | 18 h, 37 °C | 20 µg/mL
Cc1c(CN(C)C(=O)/C=C/c2cnc3c(c2)CC(N)C(=O)N3)oc2ccccc12 (stereo not drawn) | Escherichia coli | – | MG1655 FabI G148S resistant | – | > 64 µg/mL
CC(=O)N[C@@H](CC(C)C)C(=O)N[C@H]1CSSC[C@@H](C(=O)N2CCC[C@H]2C(N)=O)NC(=O)[C@H]([C@@H](C)O)NC(=O)[C@H](C(C)C)NC(=O)[C@H]([C@@H](C)O)NC(=O)CNC(=O)[C@H](CC(C)C)NC(=O)[C@H](Cc2ccccc2)NC(=O)[C@H](Cc2ccc(O)cc2)NC(=O)[C@H](CC(C)C)NC(=O)[C@H](CCCCN)NC(=O)[C@H](Cc2ccccc2)NC(=O)[C@H](CCCNC(=N)N)NC(=O)[C@H](CCC(N)=O)NC(=O)[C@H](CC(C)C)NC(=O)[C@H](CCCCN)NC(=O)[C@@H]2CCCN2C(=O)[C@H](CCCCN)NC(=O)[C@H](C(C)C)NC(=O)[C@H](CCCCN)NC(=O)[C@H](Cc2ccc(O)cc2)NC(=O)[C@H]([C@@H](C)O)NC1=O | Pseudomonas fluorescens | broth dilution | CGMCC strain | 24 h | 2.5 to 5 µM
[O-][N+]1=C(Cc2ccccc2)C2=NCCCN2c2ccccc21 | Prevotella spp. | – | – | – | 0.5 to 4 µg/mL
c1ccc(CCNC2CCCc3c2[nH]c2ccc(C4CCCCC4)cc32)cc1 (stereo not drawn) | Staphylococcus aureus | broth microdilution | SA113 | – | 4 µg/mL
C[N+]1=C2C(c3ccc(Cl)cc3)=[N+]([O-])c3ccccc3N2CCC1 | Prevotella spp. | – | – | – | 4 to 16 µg/mL
CC(C)C[C@H](NC(=O)[C@H](Cc1ccccc1)NC(=O)[C@H](CCC(N)=O)NC(=O)[C@H](Cc1ccc(O)cc1)NC(=O)[C@H](CCCCN)NC(=O)[C@@H]1CCCN1C(=O)[C@H](CCCNC(=N)N)NC(=O)[C@H](CCC(N)=O)NC(=O)[C@H](Cc1c[nH]c2ccccc12)NC(=O)[C@H](CS)NC(=O)[C@H](Cc1c[nH]c2ccccc12)NC(=O)[C@H](Cc1ccccc1)NC(=O)[C@H](CCCNC(=N)N)NC(=O)[C@H](CCCCN)NC(=O)[C@H](CCCCN)NC(=O)[C@H](CCCCN)NC(=O)[C@@H](NC(=O)[C@@H](NC(=O)[C@H](CC(C)C)NC(=O)[C@@H](N)CO)C(C)C)[C@@H](C)O)C(=O)O | Staphylococcus haemolyticus | – | – | – | 12.5 µg/mL
CC[C@H](C)[C@H](NC(=O)[C@H](CCCCN)NC(=O)[C@H](CCCCN)NC(=O)[C@H](Cc1ccccc1)NC(=O)[C@H](Cc1ccccc1)NC(=O)[C@H](CCCCN)NC(=O)[C@H](CCCCN)NC(=O)[C@H](Cc1ccccc1)NC(=O)[C@H](CCCNC(=N)N)NC(=O)[C@@H](N)CCCCN)C(=O)N[C@@H](CCCCN)C(=O)N[C@@H](CCCCN)C(=O)N[C@@H](CO)C(=O)N[C@H](C(=O)N[C@@H](CCCCN)C(=O)N[C@@H](CCCCN)C(=O)N[C@@H](CCCNC(=N)N)C(=O)N[C@H](C(=O)N[C@@H](CCCCN)C(=O)N[C@@H](CCCCN)C(=O)N[C@@H](CC(C)C)C(=O)N[C@@H](Cc1ccccc1)C(=O)N[C@@H](CCCCN)C(=O)N[C@@H](CCCCN)C(=O)N1CCC[C@H]1C(=O)N[C@@H](CCCNC(=N)N)C(=O)N[C@H](C(=O)N[C@H](C(=O)N1CCC[C@H]1C(=O)N[C@H](C(=O)N[C@@H](CO)C(=O)N[C@H](C(=O)N1CCC[C@H]1C(=O)N[C@@H](Cc1ccccc1)C(=O)O)[C@@H](C)CC)[C@@H](C)CC)[C@@H](C)CC)C(C)C)C(C)C)C(C)C | Escherichia coli | broth microdilution | E25 clinical isolate | 20 h | 4 µg/mL
[O-][N+]1=C(c2ccsc2)C2=NCCCN2c2ccccc21 | Prevotella spp. | – | – | – | 0.06 to 1 µg/mL
CC[C@H](C)[C@H](NC(=O)[C@H](CCCNC(=N)N)NC(=O)[C@H](CO)NC(=O)[C@H](Cc1ccc(O)cc1)NC(=O)[C@@H](NC(=O)[C@@H](NC(=O)[C@H](C)NC(=O)CNC(=O)[C@H](CCCCN)NC(=O)[C@H](CCCCN)NC(=O)CCNC(=O)CCCCCNC(=O)[C@H](CCCNC(=N)N)NC(=O)CCCCCNC(=O)[C@H](CCCNC(=N)N)NC(=O)[C@H](CCCNC(=N)N)NC(=O)CCCCCNC(=O)[C@H](CCCNC(=N)N)NC(=O)[C@H](CCCNC(=N)N)NC(=O)CCCCCNC(=O)[C@H](CCCNC(=N)N)NC(=O)[C@H](CCCNC(=N)N)NC(=O)CCCCCNC(=O)[C@@H](N)CCCNC(=N)N)C(C)C)[C@@H](C)O)C(=O)N[C@@H](CO)C(=O)NCC(=O)N[C@@H](CCC(N)=O)C(=O)N[C@@H](Cc1ccc(O)cc1)C(=O)N[C@@H](CCCCN)C(=O)O | Escherichia coli | – | ATCC 25922 | 1 h, 37 °C, after 25% fetal bovine serum | 6 µM
CC1(C)C(NC(=O)C(=NOC2(C(=O)O)CC2)c2csc(N)n2)C(=O)N1OS(=O)(=O)O (stereo not drawn) | Klebsiella pneumoniae | agar dilution | 2146, NDM-1 | – | 2 µg/mL
CC(C)CCCCCCCCC/C=C/C(=O)N[C@@H](CC(=O)O)C(=O)N[C@H]1CNC(=O)[C@@H]2CCCN2C(=O)[C@H](C(C)C)NC(=O)[C@@H](CN)NC(=O)CNC(=O)[C@H](CC(=O)O)NC(=O)CNC(=O)[C@H](CC(=O)O)NC(=O)[C@H](CC(=O)O)NC(=O)[C@H]2CCCCN2C1=O | Staphylococcus aureus | broth microdilution | MRSA USA300, Mueller-Hinton broth, Mg2+ 10 mg/L | 16 h, 37 °C, with: Ca2+ 2.5 mM | 4 µg/mL
C#CCOc1ccc(CN[C@@]2(C)C[C@H](O[C@H]3[C@H](Oc4c5cc6cc4Oc4ccc(cc4Cl)[C@@H](O)[C@@H](NC(=O)[C@@H](CC(C)C)NC)C(=O)N[C@@H](CC(N)=O)C(=O)N[C@H]6C(=O)N[C@H]4C(=O)N[C@H](C(=O)N[C@H](C(=O)N[C@@H](CCCNC(=N)N)C(N)=O)c6cc(O)cc(O)c6-c6cc4ccc6O)[C@H](O)c4ccc(c(Cl)c4)O5)O[C@H](CO)[C@@H](O)[C@@H]3O)O[C@@H](C)[C@H]2O)cc1OC | Enterococcus faecium | – | VRE vanB | – | 2 µM
OB(O)c1cnn(-c2cc(Cl)ncn2)c1 | Enterobacter cloacae | bacterial growth | AmpC overproducer clinical isolate | without cefotaxime | 1020 µg/mL
CCCCCCCCCCCCCC(=O)N[C@H]1C(=O)N[C@@H](CN)C(=O)N[C@@H](CO)C(=O)N[C@@H](Cc2ccc(O)cc2)C(=O)O[C@H]1C | Staphylococcus aureus | – | SH1000 | with: phosphatidylglycerol, molar ratio 0.5 | 2 µg/mL
